Experimental data of several laboratories.
Lines come from different studies, so protocols differ. Several values in a cell are separate wells, animals, samples, runs or records. ± gives the spread as reported.

CN1CCCCC1C(=O)NC(Cc1ccc(-c2ccccc2)cc1)B(O)O (centres unmarked)
IC50 (Plasmodium vivax; ex vivo; Brazilian field isolates; range limit): 0.007 to 0.068 µM

CC(C)[C@@H]1NC(=O)[C@@H](Cc2ccccc2)NC(=O)[C@@H](C(C)C)NC(=O)[C@@H](C)NC(=O)[C@H](CO)NC(=O)[C@@H](Cc2c(-c3ccc(-c4ccc5ccccc5c4)cc3)[nH]c3ccccc23)NC(=O)[C@@H](CO)NC1=O
MIC90 (Mycobacterium marinum): > 100 µM

Cc1cc(Cl)cc([S+](C)[O-])c1NC(=O)c1cc(Br)nn1-c1ncccc1Cl (centres unmarked)
mortality (Spodoptera litura; leaf-dip; third instar larvae; 50 ppm, 48 h): 46.7%

O=C(c1cncc(-c2ccc3ncnc(Nc4ccc(OCc5cccc(F)c5)c(Cl)c4)c3c2)c1)N1CCOCC1
inhibition (Trypanosoma cruzi; intracellular amastigote growth, β-galactosidase CPRG; 3T3, Tulahuen, β-galactosidase-expressing; 10 µM, 96 h): -2%

C[N+]1=C2C(c3ccc([N+](=O)[O-])cc3)=[N+]([O-])c3ccccc3N2CCC1
MIC50 (Clostridioides difficile; microbial growth): 0.25 µg/mL

CCc1nn(C)c2nc(-c3ccc(C(=O)O)cc3)nc(NCc3ccccc3)c12
parasite number (Cryptosporidium parvum; HCT-8; 6 x EC90, 6 h; relative to: DMSO control): 70.4% and 62.1% and 88.8% and 77.4%

CCOC(=O)C1(Cc2ccc(C)cc2)Oc2cc(F)ccc2N(Cc2ccc(C)cc2)C1=O (centres unmarked)
inhibition (Setaria viridis; fresh weight, greenhouse postemergence; postemergence, 150 g ai/ha, 21 days): 66 ± 1.63%

CCN(CC)CCO.O=C(O)C(Cl)Cl
inhibition (Solanum nigrum; herbicidal activity; 15 mg/mL, 21 days, pre-emergence greenhouse): 0%

Nc1nc(Nc2ccc(Cl)cc2)nn1S(=O)(=O)c1ccc2ccccc2c1
EC50 (Mayaro virus; viral replication; Vero 76, BeAr 505411): > 25 µM

FC(F)(F)c1cccc(CNc2nc(NC3CCN(Cc4ccccc4)CC3)c3nc[nH]c3n2)c1
mRNA fold change (Cryptococcus neoformans; RNA-seq, measured: CNAG_03821; 48 µg/mL, 3 h; relative to: untreated): 1.01

Cc1cc(C(=O)Nc2nc3cccc(C)c3n2[C@H]2CCCCN(C(=O)/C=C/CN(C)C)C2)ccn1
EC50 fold shift (Trypanosoma brucei; cell growth, Alamar Blue; 2T1 overexpressing Tb927.9.10920; relative to: parental 2T1): 0.82 fold and 0.76 fold

Some of these lines once more:
C[N+]1=C2C(c3ccc([N+](=O)[O-])cc3)=[N+]([O-])c3ccccc3N2CCC1
MIC50 (Clostridioides difficile; microbial growth): 0.25 µg/mL

CCc1nn(C)c2nc(-c3ccc(C(=O)O)cc3)nc(NCc3ccccc3)c12
parasite number (Cryptosporidium parvum; HCT-8; 6 x EC90, 6 h; relative to: DMSO control): 70.4% and 62.1% and 88.8% and 77.4%
